Measured values collected from several papers.
Parts stem from different laboratories: compare values within a part only.
UniProt P06239, sequence (whole entry, looked up): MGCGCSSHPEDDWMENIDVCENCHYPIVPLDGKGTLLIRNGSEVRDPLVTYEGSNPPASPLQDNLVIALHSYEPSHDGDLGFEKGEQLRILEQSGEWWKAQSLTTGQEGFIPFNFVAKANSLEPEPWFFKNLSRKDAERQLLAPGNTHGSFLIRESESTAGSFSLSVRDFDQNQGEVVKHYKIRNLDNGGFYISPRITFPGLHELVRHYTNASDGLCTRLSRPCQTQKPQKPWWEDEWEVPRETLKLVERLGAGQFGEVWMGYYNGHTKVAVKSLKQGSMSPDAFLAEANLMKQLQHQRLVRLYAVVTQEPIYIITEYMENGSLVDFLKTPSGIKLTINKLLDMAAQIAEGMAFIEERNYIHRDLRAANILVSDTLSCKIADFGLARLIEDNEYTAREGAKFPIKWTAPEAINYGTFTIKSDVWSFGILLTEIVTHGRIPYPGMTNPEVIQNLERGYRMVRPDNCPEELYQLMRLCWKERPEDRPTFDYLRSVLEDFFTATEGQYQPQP
UniProt Q96PN8, sequence (whole entry, looked up): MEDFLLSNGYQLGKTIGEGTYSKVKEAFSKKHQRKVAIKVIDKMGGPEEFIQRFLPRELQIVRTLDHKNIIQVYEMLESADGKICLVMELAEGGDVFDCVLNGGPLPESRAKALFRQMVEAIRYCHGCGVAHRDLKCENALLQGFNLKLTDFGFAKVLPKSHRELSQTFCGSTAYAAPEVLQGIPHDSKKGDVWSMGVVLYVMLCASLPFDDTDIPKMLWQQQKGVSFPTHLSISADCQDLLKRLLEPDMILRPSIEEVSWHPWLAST
UniProt Q04771, sequence (whole entry, looked up): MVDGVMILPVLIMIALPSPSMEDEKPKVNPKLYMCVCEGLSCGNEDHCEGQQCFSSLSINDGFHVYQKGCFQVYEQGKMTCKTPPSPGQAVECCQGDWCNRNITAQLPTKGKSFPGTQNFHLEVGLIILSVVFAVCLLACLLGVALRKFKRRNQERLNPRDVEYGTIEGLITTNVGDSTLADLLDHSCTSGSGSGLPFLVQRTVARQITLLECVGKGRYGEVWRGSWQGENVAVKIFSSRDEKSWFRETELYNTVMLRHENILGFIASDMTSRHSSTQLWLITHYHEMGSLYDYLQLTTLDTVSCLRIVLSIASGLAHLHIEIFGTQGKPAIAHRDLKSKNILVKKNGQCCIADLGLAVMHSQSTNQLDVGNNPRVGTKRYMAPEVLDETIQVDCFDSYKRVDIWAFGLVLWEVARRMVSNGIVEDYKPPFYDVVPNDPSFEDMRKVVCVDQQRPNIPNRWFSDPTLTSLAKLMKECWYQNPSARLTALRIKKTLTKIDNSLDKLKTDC
UniProt Q96PY6, sequence (whole entry, looked up): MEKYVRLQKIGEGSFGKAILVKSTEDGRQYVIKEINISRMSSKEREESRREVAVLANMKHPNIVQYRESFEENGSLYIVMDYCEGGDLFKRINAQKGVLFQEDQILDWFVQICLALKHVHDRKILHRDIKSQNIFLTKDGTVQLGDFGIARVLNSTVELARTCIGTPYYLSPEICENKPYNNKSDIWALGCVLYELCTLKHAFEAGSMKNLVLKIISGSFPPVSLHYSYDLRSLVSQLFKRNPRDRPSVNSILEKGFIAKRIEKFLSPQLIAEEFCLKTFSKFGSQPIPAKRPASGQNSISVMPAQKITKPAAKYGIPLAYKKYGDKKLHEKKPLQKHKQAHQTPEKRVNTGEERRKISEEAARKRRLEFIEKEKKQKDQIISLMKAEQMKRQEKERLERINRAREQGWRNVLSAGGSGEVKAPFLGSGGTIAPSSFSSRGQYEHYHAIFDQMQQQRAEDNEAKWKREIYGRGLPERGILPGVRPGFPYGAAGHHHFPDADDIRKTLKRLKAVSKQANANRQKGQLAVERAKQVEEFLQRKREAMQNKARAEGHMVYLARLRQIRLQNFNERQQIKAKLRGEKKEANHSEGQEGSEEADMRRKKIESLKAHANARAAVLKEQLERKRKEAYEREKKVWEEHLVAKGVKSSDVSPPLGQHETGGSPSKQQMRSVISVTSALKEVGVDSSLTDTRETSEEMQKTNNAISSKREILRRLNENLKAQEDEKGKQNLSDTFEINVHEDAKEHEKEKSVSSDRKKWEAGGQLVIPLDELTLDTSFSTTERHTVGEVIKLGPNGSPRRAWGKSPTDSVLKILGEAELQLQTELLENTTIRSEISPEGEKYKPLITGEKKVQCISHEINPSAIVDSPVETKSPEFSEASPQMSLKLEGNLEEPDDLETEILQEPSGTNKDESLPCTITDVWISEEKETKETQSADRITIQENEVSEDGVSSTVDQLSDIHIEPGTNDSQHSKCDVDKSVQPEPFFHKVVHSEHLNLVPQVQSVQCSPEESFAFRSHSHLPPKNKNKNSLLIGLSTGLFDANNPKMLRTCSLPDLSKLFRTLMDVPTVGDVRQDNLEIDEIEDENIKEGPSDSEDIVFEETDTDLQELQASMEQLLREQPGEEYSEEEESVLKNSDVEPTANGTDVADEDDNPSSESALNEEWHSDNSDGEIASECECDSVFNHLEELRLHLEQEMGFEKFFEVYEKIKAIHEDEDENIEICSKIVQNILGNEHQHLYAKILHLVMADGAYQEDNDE
UniProt P22607, sequence (whole entry, looked up): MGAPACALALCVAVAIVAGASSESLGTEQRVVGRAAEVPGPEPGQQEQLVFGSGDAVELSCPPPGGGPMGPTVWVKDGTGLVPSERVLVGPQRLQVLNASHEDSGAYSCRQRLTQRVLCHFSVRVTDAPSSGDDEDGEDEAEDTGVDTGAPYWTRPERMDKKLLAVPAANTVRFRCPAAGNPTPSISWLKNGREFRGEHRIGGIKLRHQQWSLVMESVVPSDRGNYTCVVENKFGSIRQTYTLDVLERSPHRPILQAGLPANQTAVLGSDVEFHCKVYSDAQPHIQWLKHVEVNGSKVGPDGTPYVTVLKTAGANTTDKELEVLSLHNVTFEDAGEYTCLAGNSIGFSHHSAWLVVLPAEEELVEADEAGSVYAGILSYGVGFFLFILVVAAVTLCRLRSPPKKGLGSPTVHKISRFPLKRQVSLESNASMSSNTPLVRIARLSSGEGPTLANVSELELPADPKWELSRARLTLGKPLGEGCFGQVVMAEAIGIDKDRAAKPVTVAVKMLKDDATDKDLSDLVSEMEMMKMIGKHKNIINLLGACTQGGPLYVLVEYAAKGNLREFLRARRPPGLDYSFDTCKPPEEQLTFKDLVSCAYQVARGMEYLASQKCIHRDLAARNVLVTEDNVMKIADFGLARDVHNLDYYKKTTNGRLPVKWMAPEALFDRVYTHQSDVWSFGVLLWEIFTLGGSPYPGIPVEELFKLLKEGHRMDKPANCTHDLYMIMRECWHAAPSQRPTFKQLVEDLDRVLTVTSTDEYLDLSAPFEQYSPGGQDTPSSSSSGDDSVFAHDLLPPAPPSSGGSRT
UniProt P42685, sequence (whole entry, looked up): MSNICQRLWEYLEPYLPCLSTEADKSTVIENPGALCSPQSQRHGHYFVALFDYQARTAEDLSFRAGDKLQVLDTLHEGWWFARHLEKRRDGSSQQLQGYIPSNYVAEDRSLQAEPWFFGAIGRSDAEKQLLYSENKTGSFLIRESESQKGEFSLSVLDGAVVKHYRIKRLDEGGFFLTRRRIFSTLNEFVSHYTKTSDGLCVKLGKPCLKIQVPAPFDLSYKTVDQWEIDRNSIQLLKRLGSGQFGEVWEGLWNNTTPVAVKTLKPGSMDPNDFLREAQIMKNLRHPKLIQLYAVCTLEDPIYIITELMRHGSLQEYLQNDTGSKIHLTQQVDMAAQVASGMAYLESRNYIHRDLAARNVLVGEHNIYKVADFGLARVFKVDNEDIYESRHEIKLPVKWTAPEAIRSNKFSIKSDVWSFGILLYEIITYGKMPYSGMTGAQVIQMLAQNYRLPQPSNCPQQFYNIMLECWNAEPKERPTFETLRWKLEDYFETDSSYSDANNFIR
UniProt Q9BYT3, sequence (whole entry, looked up): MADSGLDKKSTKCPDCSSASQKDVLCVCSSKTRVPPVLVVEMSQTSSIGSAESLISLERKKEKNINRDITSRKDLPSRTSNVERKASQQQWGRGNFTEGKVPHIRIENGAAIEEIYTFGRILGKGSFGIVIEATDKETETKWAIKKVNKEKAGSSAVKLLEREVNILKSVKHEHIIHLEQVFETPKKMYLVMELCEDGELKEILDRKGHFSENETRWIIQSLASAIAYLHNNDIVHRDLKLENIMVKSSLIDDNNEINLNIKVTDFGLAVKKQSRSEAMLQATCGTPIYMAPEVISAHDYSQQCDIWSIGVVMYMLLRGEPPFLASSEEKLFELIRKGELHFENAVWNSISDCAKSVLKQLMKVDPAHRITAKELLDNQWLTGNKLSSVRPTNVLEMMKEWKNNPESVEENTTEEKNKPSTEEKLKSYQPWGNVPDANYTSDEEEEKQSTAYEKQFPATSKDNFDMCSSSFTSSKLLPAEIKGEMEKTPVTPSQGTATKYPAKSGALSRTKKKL
UniProt P49137, sequence (whole entry, looked up): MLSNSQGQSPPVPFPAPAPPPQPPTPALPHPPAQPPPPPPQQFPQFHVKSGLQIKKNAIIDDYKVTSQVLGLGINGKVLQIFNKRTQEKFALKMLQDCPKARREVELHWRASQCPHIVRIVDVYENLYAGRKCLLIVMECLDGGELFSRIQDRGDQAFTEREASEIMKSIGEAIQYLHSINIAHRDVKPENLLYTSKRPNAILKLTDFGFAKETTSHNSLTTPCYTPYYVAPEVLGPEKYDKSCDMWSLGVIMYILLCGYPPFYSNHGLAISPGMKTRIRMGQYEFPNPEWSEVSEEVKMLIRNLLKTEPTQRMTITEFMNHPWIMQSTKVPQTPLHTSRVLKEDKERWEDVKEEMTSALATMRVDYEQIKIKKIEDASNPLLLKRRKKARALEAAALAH

Study 1
Species: mouse
Matrix: microsomes or S9
Tested at: 2 µM
Time: 0.5 h
Structure (SMILES)	remaining compound [%]
CC1CCCC(C)N1C(=O)Cn1cnc2cc3c(cc21)OCCO3 (centres unmarked)	37.4
CNS(=O)(=O)c1cn(CC(=O)Nc2ccc(C)cn2)cc1S(=O)(=O)NC	89.6
O=C(COc1ncnc2scc(-c3ccccc3)c12)c1ccc(S(=O)(=O)N2CCCC2)cc1	2.59
COc1ccc(Cc2nc(-c3ccc(S(C)(=O)=O)cc3)c(C)s2)cc1	49.2
COc1ccc(-n2c(-c3ccc(OCCN(C)C)cc3)nn(Cc3ccccc3)c2=O)cc1	86.4
Cc1cc(=O)n2nc(-c3cccs3)nc2n1CC(=O)N1CCN(C)CC1	> 99

Study 2
Organism: Sarcocystis neurona
Effect on: parasite activity
Tested at: 10 µM
Time: 96 h
SMILES	activity class
CCCCc1oc2ccccc2c1C(=O)c1cc(I)c(OCCN(CC)CC)c(I)c1	inactive
O=C(O)c1cc(/N=N/c2ccc(S(=O)(=O)Nc3ccccn3)cc2)ccc1O	inactive
CC(COc1ccccc1)NC(C)C(O)c1ccc(O)cc1 (centres unmarked)	inactive
CCN(CC)CCOc1ccc(C(=C(Cl)c2ccccc2)c2ccccc2)cc1	inactive
CC1(C)O[C@@H]2C[C@H]3[C@@H]4C[C@H](F)C5=CC(=O)C=C[C@]5(C)[C@@]4(F)[C@@H](O)C[C@]3(C)[C@]2(C(=O)CO)O1	inactive
CC[C@H](C)C(=O)O[C@H]1C[C@H](O)C=C2C=C[C@H](C)[C@H](CC[C@@H](O)C[C@@H](O)CC(=O)O)[C@H]21	inactive
CCN1CCN(C(=O)N[C@@H](C(=O)N[C@@H]2C(=O)N3[C@@H]2SC(C)(C)[C@@H]3C(=O)O)c2ccccc2)C(=O)C1=O	inactive
O=c1[nH]cnc2c1ncn2[C@H]1CC[C@@H](CO)O1	inactive

Study 3
SMILES: CC(=O)Nc1c(C(C)=O)c(=O)n(C)c2nc(-c3ccc(Cl)cc3Cl)c(-c3ccc(Cl)cc3)cc12
Method: competition with immobilised ligand
Tested at: 1 µM
target	assay	remaining binding
Microtubule-associated serine/threonine-protein kinase 1 (MAST1, Homo sapiens, UniProt Q9Y2H9)	cell-free assay	100%
Activin receptor type-1 (ACVR1, Homo sapiens, UniProt Q04771)	cell-free assay	100%
Tyrosine-protein kinase Lck (LCK, Homo sapiens, UniProt P06239)	cell-free assay	100%
Serine/threonine-protein kinase 33 (STK33, Homo sapiens, UniProt Q9BYT3)	cell-free assay	100%
Mitogen-activated protein kinase 15 (MAPK15, Homo sapiens, UniProt Q8TD08)	cell-free assay	100%
Testis-specific serine/threonine-protein kinase 3 (TSSK3, Homo sapiens, UniProt Q96PN8)	cell-free assay	100%
Mitogen-activated protein kinase 12 (MAPK12, Homo sapiens, UniProt P53778)	cell-free assay	100%
Serine/threonine-protein kinase Nek1 (NEK1, Homo sapiens, UniProt Q96PY6)	cell-free assay	100%
Dual specificity mitogen-activated protein kinase kinase 3 (MAP2K3, Homo sapiens, UniProt P46734)	cell-free assay	86%
Phosphatidylinositol 4,5-bisphosphate 3-kinase catalytic subunit gamma isoform (PIK3CG, Homo sapiens, UniProt P48736)	cell-free assay	78%
Tyrosine-protein kinase ABL1, phosphorylated (ABL1, Homo sapiens, UniProt P00519, E255K)	binding	94%
Interleukin-1 receptor-associated kinase 1 (IRAK1, Homo sapiens, UniProt P51617)	cell-free assay	97%

Study 4
Compound: N#CC(C#N)=C(N)/C(C#N)=C/c1ccc(O)cc1
Effect on: enzyme activity
Mode: inhibitor
Tested at: 0.5 µM
Relative to: control
target	remaining activity [%]
Fibroblast growth factor receptor 3 (FGFR3, Homo sapiens, UniProt P22607)	98.9
Activin receptor type-1B (ACVR1B, Homo sapiens, UniProt P36896)	101
Rhodopsin kinase GRK7 (GRK7, Homo sapiens, UniProt Q8WTQ7)	104
Mitogen-activated protein kinase kinase kinase 14 (MAP3K14, Homo sapiens, UniProt Q99558)	108
Mitogen-activated protein kinase 3 (MAPK3, Homo sapiens, UniProt P27361)	101
Tyrosine-protein kinase FRK (FRK, Homo sapiens, UniProt P42685)	99
Macrophage-stimulating protein receptor (MST1R, Homo sapiens, UniProt Q04912)	102
Mitogen-activated protein kinase kinase kinase 5 (MAP3K5, Homo sapiens, UniProt Q99683)	103
Tyrosine-protein kinase Lck (LCK, Homo sapiens, UniProt P06239)	95.1
Fibroblast growth factor receptor 1 (FGFR1, Homo sapiens, UniProt P11362)	95.3
MAP kinase-activated protein kinase 2 (MAPKAPK2, Homo sapiens, UniProt P49137)	91.3
Tyrosine-protein kinase JAK3 (JAK3, Homo sapiens, UniProt P52333)	102

For quick reference, copied from above (study 4):
target	remaining activity [%]
Mitogen-activated protein kinase kinase kinase 14 (MAP3K14, Homo sapiens, UniProt Q99558)	108
Mitogen-activated protein kinase 3 (MAPK3, Homo sapiens, UniProt P27361)	101
Tyrosine-protein kinase FRK (FRK, Homo sapiens, UniProt P42685)	99
Macrophage-stimulating protein receptor (MST1R, Homo sapiens, UniProt Q04912)	102
Mitogen-activated protein kinase kinase kinase 5 (MAP3K5, Homo sapiens, UniProt Q99683)	103
